# Measurements pooled from the literature.
# Numbered parts are unrelated; each lists some results of a single study. Values joined by “and” are separate records of one study, mostly repeats; a detail may differ.
# Sequence of UniProt P19784 (whole entry, looked up): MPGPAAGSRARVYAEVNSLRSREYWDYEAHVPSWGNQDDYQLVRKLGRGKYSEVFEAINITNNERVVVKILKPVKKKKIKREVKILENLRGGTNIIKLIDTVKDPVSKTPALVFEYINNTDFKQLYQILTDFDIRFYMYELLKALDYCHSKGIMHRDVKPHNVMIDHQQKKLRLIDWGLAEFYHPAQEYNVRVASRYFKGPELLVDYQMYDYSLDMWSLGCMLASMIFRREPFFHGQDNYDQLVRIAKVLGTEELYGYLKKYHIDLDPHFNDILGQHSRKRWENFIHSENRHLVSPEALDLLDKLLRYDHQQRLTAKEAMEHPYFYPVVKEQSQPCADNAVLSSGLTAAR
# Sequence of UniProt Q9NR20 (whole entry, looked up): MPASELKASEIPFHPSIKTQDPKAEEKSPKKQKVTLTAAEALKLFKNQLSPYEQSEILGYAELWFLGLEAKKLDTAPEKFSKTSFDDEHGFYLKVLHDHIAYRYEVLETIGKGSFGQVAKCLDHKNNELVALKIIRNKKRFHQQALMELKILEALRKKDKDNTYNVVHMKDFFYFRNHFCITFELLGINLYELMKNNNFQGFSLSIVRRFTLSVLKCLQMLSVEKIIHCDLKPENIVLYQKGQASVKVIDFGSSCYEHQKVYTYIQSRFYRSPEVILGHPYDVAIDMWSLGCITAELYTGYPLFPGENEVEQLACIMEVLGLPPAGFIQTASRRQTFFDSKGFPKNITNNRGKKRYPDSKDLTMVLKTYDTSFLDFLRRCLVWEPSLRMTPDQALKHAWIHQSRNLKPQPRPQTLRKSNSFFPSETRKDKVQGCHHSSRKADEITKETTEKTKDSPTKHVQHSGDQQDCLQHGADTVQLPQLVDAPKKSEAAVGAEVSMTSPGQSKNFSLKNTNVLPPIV
# Sequence of UniProt P41279 (whole entry, looked up): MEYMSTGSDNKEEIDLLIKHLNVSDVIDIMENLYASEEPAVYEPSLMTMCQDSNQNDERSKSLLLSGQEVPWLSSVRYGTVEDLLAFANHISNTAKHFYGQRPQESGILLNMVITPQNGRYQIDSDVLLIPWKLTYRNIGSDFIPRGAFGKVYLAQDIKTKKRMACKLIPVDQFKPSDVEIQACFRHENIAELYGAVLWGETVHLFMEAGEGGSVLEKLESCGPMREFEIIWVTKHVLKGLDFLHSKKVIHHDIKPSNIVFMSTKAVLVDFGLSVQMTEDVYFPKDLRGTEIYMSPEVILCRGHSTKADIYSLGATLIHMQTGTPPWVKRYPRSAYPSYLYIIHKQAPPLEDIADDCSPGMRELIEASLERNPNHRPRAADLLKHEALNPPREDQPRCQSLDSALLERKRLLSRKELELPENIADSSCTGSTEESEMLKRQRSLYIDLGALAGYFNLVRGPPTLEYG
# Sequence of UniProt O00506 (whole entry, looked up): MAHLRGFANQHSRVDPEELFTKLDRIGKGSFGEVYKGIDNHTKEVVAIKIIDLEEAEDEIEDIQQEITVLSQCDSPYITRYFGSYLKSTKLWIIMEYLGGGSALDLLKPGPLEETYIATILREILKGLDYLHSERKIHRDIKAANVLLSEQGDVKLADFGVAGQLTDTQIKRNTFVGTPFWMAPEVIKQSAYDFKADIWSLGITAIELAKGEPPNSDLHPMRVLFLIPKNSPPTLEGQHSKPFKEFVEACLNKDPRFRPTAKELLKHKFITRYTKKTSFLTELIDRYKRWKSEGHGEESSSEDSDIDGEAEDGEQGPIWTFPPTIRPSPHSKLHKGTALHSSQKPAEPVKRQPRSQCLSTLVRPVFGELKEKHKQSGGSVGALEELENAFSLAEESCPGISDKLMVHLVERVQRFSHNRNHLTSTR
# Sequence of UniProt O14965 (whole entry, looked up): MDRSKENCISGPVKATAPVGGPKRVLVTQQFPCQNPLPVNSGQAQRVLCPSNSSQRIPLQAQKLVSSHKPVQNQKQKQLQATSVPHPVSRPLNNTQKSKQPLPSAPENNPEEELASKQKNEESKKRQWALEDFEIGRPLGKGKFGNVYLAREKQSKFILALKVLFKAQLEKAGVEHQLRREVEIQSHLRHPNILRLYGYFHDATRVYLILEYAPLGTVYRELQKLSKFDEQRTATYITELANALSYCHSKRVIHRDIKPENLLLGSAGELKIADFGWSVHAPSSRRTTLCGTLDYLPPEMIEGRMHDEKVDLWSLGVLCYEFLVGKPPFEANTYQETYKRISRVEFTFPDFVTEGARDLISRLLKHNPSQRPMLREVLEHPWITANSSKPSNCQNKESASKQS
# Sequence of UniProt Q14289 (whole entry, looked up): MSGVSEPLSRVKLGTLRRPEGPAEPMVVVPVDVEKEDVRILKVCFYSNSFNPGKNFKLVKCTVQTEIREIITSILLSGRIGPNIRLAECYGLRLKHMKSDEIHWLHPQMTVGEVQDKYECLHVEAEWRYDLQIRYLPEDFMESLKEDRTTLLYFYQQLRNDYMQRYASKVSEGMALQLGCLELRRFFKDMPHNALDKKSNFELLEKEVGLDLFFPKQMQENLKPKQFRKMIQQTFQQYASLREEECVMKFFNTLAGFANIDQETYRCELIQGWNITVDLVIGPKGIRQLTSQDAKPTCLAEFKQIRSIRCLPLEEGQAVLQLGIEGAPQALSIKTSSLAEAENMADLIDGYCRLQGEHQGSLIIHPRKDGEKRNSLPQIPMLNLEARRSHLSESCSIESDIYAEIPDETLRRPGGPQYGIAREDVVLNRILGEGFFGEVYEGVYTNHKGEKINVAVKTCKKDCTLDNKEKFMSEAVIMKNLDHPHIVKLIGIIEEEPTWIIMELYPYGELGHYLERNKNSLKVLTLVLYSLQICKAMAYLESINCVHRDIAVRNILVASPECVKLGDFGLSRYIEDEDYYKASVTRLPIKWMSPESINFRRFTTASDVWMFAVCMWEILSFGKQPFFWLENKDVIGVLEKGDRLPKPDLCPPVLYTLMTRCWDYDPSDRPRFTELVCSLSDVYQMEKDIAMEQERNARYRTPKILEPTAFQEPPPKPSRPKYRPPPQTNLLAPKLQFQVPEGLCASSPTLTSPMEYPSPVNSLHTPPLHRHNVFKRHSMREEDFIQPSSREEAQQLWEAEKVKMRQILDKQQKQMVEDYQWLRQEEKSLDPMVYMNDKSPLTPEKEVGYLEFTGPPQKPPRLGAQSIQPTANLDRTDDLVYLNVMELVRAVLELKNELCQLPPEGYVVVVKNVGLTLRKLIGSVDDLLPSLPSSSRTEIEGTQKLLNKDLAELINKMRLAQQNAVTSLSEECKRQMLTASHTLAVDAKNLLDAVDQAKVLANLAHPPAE
# Sequence of UniProt P07949 (whole entry, looked up): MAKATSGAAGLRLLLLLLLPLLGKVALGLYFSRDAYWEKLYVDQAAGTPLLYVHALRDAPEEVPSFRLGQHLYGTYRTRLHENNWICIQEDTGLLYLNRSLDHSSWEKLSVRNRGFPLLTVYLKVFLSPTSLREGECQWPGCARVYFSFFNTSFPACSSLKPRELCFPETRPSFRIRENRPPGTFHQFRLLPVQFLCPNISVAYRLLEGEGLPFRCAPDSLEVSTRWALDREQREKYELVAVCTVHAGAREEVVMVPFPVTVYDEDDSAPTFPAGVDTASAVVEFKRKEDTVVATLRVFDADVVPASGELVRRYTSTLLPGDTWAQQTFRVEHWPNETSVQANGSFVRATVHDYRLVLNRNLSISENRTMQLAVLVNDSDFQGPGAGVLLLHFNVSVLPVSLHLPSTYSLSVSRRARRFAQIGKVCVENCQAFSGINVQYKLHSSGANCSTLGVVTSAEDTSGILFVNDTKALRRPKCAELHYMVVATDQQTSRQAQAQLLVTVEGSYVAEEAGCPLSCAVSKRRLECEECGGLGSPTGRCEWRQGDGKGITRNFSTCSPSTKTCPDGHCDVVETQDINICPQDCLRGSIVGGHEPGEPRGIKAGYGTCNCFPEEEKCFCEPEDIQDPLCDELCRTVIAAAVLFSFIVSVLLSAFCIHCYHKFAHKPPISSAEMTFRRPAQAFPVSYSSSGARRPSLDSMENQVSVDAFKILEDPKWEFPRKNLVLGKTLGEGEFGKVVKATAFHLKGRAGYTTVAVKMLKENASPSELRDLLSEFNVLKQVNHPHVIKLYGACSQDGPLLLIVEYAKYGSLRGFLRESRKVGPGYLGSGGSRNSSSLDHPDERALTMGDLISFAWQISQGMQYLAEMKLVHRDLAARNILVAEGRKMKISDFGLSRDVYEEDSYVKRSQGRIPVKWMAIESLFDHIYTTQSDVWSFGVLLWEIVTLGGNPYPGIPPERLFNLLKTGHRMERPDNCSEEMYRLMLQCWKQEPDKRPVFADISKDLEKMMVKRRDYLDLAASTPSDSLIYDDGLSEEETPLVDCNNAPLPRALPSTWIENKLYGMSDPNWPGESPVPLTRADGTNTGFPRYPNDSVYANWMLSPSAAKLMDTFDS
# Sequence of UniProt Q96NX5 (whole entry, looked up): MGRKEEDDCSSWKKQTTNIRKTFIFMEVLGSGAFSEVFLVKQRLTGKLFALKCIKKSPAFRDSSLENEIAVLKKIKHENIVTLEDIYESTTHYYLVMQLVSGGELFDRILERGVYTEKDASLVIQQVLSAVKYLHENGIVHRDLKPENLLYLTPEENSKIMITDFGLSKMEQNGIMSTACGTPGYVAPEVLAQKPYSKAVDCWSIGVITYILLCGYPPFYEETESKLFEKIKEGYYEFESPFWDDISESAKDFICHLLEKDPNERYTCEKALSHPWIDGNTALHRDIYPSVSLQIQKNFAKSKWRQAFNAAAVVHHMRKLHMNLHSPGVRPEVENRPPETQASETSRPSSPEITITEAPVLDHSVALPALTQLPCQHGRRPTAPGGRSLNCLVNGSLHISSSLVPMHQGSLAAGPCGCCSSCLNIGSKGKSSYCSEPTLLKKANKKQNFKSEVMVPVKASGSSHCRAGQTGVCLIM

# Study 1 — cell line: mouse MPNST tumor cells; method: high-content nuclear imaging; measured: cell number; tested at: 10 µM; time: 12 h; setting: mean of 2 replicates; baseline: plate mean; reading: higher = more cells
SMILES,nuclei count
Cc1nnc(C(C)C)n1C1C[C@H]2CC[C@@H](C1)N2CC[C@H](NC(=O)C1CCC(F)(F)CC1)c1ccccc1 (stereo in doubt),0.3 z-score and -0.605 z-score
O=C(O)C1=CCCN(CCON=C(c2ccccc2)c2ccccc2)C1,-0.0405 z-score
Cc1c(N(C)CS(=O)(=O)O)c(=O)n(-c2ccccc2)n1C,1.32 z-score
O=C(c1cccc(Br)c1)N1CCC(N2CCCC2)CC1,0.224 z-score
CCC(=O)OCC(=O)[C@@]1(OC(=O)CC)[C@@H](C)C[C@H]2[C@@H]3CCC4=CC(=O)C=C[C@]4(C)[C@@]3(Cl)[C@@H](O)C[C@@]21C,1.17 z-score
O=C(O)c1cc(=O)c2c(Cl)cc(Cl)cc2[nH]1,0.471 z-score
NCCCC[C@H](N[C@@H](CCc1ccccc1)C(=O)O)C(=O)N1CCC[C@H]1C(=O)O,1.49 z-score
Nc1nccc(/C=C/c2ccccc2)n1,-2.1 z-score

# Study 2 — SMILES: Cn1cnc2cc3c(Nc4cccc(Br)c4)ncnc3cc21; effect on: enzyme activity; action: inhibitor; tested at: 0.5 µM; baseline: control
target,remaining activity [%]
"Dual specificity tyrosine-phosphorylation-regulated kinase 4 (DYRK4, Homo sapiens, UniProt Q9NR20)",97.5
"Myotonin-protein kinase (DMPK, Homo sapiens, UniProt Q09013)",98.5
"Cyclin-dependent kinase 2, with cyclin A (CDK2, Homo sapiens, UniProt P24941)",90.1
"NT-3 growth factor receptor (NTRK3, Homo sapiens, UniProt Q16288)",81.4
"Serine/threonine-protein kinase N2 (PKN2, Homo sapiens, UniProt Q16513)",85.7
"Serine/threonine-protein kinase D1 (PRKD1, Homo sapiens, UniProt Q15139)",99.4
"Proto-oncogene tyrosine-protein kinase ROS (ROS1, Homo sapiens, UniProt P08922)",99.9
"Calcium/calmodulin-dependent protein kinase type 1G (CAMK1G, Homo sapiens, UniProt Q96NX5)",94.2
"Casein kinase II subunit alpha' (CSNK2A2, Homo sapiens, UniProt P19784)",91.7
"Mitogen-activated protein kinase 10 (MAPK10, Homo sapiens, UniProt P53779)",104
"Aurora kinase A (AURKA, Homo sapiens, UniProt O14965)",87.8
"Proto-oncogene tyrosine-protein kinase receptor Ret (RET, Homo sapiens, UniProt P07949)",54.4
"Mitogen-activated protein kinase kinase kinase 8 (MAP3K8, Homo sapiens, UniProt P41279)",90.1
"Rho-associated protein kinase 2 (ROCK2, Homo sapiens, UniProt O75116)",88.5
"Cyclin-dependent kinase 7 (CDK7, Homo sapiens, UniProt P50613)",99.5
"Mitogen-activated protein kinase kinase kinase 2 (MAP3K2, Homo sapiens, UniProt Q9Y2U5)",97.6
"Homeodomain-interacting protein kinase 3 (HIPK3, Homo sapiens, UniProt Q9H422)",107
"G protein-coupled receptor kinase 5 (GRK5, Homo sapiens, UniProt P34947)",109
"Protein-tyrosine kinase 2-beta (PTK2B, Homo sapiens, UniProt Q14289)",92.7
"STE20-like serine/threonine-protein kinase (SLK, Homo sapiens, UniProt Q9H2G2)",67.8

# Study 3 — effect on: cell-free assay; method: competition with immobilised ligand; tested at: 0.1 µM
# SMILES: CC(C)CC(=O)N1CCc2nc(-c3ccc(Br)cc3)nc(N(C)Cc3ccccc3)c2C1
target,remaining binding [%]
"Serine/threonine-protein kinase 24 (STK24, Homo sapiens, UniProt Q9Y6E0)",100
"Serine/threonine-protein kinase ICK (CILK1, Homo sapiens, UniProt Q9UPZ9)",100
"Dual specificity tyrosine-phosphorylation-regulated kinase 1B (DYRK1B, Homo sapiens, UniProt Q9Y463)",77
"Phosphatidylinositol 4,5-bisphosphate 3-kinase catalytic subunit delta isoform (PIK3CD, Homo sapiens, UniProt O00329)",82
"Protein kinase C iota type (PRKCI, Homo sapiens, UniProt P41743)",100
"Serine/threonine-protein kinase 25 (STK25, Homo sapiens, UniProt O00506)",100
"MAP kinase-activated protein kinase 2 (MAPKAPK2, Homo sapiens, UniProt P49137)",92

# Study 4 — organism: Cryptosporidium parvum; method: time-kill; cells: HCT-8; strain: nanoluciferase-expressing; baseline: DMSO control
# SMILES: CN(C(=O)c1ccn2ncc(-c3ccc(C(N)=O)cc3)c2c1)c1ccc(C#N)cn1
tested at,time,luminescence remaining
0.00914 µM,4 h,110% and 85.1%
0.02743 µM,24 h,82% and 81.6%
6.667 µM,24 h,30.1% and 46.2%
0.00102 µM,24 h,102% and 93.7%
0.00305 µM,8 h,115% and 105%
0.00914 µM,8 h,112% and 113%
20 µM,4 h,114% and 111%
